# Assay results pooled from the literature.
# Each numbered part is a random draw from the data of one study; scales do not carry over between parts.
# Chain of UniProt Q02763 (whole entry, looked up): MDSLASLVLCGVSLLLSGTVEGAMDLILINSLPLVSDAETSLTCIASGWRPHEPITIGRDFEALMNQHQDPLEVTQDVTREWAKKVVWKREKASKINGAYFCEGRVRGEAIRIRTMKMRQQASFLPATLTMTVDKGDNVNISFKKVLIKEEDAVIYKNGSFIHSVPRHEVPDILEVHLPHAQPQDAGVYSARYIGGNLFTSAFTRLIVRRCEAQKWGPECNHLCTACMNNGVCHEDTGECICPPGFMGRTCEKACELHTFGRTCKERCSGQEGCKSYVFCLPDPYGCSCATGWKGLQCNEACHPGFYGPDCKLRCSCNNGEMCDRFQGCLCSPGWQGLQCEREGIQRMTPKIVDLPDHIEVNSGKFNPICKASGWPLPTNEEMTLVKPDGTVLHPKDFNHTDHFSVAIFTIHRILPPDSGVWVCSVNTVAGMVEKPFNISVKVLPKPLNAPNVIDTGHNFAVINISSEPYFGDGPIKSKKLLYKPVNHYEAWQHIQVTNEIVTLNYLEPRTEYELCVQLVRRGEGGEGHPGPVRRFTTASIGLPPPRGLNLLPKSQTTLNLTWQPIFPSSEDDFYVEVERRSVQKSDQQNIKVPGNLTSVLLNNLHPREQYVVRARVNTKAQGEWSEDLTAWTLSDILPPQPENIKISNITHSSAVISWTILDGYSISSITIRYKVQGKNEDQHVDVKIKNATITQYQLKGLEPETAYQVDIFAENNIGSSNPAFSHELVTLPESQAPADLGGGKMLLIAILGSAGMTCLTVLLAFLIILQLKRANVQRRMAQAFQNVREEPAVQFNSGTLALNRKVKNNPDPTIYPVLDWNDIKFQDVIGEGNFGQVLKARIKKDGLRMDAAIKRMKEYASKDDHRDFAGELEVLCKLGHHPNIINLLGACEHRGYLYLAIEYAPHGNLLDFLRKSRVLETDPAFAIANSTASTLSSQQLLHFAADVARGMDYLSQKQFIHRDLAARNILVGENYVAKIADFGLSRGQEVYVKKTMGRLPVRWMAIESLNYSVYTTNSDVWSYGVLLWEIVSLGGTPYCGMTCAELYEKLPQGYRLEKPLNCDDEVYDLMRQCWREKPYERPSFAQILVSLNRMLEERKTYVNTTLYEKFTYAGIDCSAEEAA
# Chain of UniProt Q15349 (whole entry, looked up): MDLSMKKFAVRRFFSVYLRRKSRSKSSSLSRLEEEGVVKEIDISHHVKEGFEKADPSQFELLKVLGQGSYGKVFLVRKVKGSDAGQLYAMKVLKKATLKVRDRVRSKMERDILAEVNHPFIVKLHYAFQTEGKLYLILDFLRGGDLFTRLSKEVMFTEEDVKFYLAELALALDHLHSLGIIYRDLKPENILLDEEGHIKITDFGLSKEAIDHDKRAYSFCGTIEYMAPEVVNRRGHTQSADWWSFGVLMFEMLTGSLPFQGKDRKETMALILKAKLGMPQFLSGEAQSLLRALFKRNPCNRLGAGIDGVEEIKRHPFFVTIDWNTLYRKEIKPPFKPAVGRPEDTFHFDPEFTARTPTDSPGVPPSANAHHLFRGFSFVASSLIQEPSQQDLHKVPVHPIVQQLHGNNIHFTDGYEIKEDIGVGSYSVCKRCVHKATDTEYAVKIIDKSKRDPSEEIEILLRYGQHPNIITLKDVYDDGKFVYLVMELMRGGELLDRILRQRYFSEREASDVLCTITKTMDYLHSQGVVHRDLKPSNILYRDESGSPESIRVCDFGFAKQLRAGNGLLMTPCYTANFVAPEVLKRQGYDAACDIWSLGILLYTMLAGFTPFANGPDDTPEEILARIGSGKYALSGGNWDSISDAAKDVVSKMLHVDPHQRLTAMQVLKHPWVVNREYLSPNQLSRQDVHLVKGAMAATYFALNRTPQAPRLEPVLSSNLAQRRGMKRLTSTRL
# Chain of UniProt P07949 (whole entry, unmodified, looked up): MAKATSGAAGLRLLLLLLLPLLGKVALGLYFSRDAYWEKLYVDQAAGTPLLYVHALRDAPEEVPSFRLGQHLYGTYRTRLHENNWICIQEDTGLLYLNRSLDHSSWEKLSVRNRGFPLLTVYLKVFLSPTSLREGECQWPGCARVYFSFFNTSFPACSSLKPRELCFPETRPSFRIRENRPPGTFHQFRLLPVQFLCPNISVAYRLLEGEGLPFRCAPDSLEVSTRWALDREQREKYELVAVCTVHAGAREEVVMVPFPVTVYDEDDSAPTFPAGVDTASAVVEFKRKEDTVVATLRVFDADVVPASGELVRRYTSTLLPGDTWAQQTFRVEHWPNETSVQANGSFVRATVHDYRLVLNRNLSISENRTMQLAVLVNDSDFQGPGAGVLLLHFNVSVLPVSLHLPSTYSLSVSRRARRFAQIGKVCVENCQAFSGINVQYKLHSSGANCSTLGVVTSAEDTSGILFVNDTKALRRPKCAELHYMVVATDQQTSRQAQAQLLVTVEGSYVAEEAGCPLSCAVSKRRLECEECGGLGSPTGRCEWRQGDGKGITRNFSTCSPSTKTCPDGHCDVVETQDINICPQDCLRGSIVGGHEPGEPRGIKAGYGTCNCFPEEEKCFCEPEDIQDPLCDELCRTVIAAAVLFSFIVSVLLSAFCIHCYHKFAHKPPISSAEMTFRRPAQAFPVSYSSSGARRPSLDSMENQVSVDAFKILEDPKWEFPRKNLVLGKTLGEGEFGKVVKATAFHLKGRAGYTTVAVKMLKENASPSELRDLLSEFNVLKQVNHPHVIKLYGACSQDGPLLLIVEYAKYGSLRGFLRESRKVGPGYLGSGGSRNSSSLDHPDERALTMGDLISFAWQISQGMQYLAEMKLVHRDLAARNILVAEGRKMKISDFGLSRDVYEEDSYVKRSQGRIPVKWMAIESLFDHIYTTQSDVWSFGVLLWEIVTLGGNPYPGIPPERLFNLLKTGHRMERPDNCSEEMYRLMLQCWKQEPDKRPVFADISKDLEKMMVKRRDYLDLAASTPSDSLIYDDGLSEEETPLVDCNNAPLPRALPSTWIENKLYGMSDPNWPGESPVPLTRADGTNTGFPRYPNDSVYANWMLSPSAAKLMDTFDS
# Chain of UniProt O75914 (whole entry, looked up): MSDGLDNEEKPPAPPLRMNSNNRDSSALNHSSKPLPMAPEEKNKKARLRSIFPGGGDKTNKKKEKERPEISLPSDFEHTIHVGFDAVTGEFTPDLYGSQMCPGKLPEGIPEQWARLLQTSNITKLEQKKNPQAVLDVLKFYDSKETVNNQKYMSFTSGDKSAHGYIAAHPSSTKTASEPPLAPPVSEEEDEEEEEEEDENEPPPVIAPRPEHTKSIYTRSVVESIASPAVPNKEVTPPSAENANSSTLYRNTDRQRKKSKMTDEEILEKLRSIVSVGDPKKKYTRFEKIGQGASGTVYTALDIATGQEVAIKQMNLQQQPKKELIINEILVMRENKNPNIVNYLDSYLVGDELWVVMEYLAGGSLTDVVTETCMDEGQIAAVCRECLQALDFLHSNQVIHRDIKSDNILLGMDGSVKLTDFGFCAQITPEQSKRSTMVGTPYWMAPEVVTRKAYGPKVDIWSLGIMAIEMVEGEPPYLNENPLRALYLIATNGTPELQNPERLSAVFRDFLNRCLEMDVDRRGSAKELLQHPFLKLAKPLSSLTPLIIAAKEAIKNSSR
# Chain of UniProt P46098 (whole entry, looked up): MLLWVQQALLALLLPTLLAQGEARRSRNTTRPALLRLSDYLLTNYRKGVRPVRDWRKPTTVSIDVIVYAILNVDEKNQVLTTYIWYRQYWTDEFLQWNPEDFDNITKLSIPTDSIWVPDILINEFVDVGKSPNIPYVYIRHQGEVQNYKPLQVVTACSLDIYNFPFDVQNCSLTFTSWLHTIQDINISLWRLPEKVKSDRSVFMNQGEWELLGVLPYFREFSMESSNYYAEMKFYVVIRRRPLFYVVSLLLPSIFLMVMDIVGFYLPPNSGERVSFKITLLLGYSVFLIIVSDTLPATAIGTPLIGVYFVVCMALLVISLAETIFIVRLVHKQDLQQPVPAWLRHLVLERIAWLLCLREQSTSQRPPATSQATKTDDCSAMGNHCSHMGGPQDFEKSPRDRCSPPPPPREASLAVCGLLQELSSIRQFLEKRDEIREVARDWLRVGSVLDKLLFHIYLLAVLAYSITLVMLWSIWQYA
# Chain of UniProt Q9UBE8 (whole entry, looked up): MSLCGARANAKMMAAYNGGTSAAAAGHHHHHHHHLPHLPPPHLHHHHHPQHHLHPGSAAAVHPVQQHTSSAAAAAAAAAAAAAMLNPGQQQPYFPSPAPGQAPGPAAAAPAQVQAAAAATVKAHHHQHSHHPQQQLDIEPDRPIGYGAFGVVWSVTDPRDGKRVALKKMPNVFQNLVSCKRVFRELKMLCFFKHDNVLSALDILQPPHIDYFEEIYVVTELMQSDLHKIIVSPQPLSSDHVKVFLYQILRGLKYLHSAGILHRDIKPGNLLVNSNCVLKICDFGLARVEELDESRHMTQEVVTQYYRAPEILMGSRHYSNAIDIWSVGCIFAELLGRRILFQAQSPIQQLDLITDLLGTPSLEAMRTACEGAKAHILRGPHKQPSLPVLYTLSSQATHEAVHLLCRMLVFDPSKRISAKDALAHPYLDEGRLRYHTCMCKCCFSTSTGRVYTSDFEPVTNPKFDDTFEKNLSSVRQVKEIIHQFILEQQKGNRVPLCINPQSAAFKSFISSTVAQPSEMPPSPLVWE

# Study 1 — effect on: enzyme activity; mode: inhibitor; concentration: 0.5 µM; relative to: control
# Target: Mitogen-activated protein kinase 8 (MAPK8, Homo sapiens, UniProt P45983)
# Chain of UniProt P45983 (whole entry, looked up): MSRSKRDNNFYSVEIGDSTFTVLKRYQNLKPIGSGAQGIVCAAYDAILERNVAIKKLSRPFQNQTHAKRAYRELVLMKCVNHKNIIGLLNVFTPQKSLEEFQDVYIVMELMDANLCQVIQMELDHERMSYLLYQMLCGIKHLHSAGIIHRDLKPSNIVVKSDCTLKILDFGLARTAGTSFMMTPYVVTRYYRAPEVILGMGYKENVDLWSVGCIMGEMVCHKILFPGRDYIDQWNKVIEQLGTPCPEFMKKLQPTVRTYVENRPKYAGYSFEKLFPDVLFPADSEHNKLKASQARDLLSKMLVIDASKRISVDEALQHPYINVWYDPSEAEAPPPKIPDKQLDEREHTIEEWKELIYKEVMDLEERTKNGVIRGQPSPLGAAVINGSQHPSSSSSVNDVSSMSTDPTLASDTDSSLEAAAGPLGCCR
SMILES,remaining activity [%]
O=C1c2ccccc2-c2nc3nnnn3nc21,78.3
N#C/C(=C(/N)SC1C=CC=CC1)c1cccc(C(O)c2ccncc2)c1 (stereo not shown),102
FC(F)(F)c1ccc(/C=C/c2nc(COc3ccc(CCCCn4ccnn4)cc3)co2)cc1,105
COc1cc2c(Nc3ccc(Br)cc3F)ncnc2cc1OCC1CCN(C)CC1,93.7
O=Nc1c(-c2c(O)[nH]c3ccccc23)[nH]c2ccccc12,101
O=C(O)/C=C/c1cc(Br)c(Br)c(Br)c1Br,86.8
O=C(c1ccccc1)c1ccc(N2CCOCC2)cc1O,99.5
NC(=O)c1cccc(-c2cc(Nc3ccc(OC(F)(F)F)cc3)ncn2)c1,90.3
CC(C)(C)c1nc2c3cc[nH]c(=O)c3c3cc(F)ccc3c2[nH]1,73.7
Nc1nc(Nc2ccc(S(N)(=O)=O)cc2)nn1C(=S)Nc1c(F)cccc1F,78.8
NC(=O)c1ccc(-c2nc(-c3ccc4c(c3)OCCO4)c(-c3ccccn3)[nH]2)cc1,97.4
CCN(CC)CCCCN1c2ccccc2Oc2ccc(Cl)cc21,89.7
O=c1c(-c2ccc(F)cc2)c(-c2ccncc2)[nH]n1-c1ccc(Cl)cc1,90.2
CC(C)N(CCC(=O)c1ccc2ccccc2c1)Cc1ccccc1,88
C[C@@H](N)[C@H]1CC[C@H](C(=O)Nc2ccncc2)CC1,97.1
CNc1cc2c(Nc3cccc(Br)c3)ncnc2cn1,96.4
Clc1ccc(Nc2nnc(Cc3ccncc3)c3ccccc23)cc1,98.2
O=C1NC(=O)/C(=C/c2ccc3c(c2)OC(F)(F)O3)S1,95.1
CCCCc1c(-c2ccc(O)cc2)[nH]c2nccnc12,81.9
CC(C)n1cnc2c(Nc3cccc(Cl)c3)nc(NCCO)nc21,94.8
c1cc(-c2cnn3cc(-c4ccc(OCCN5CCCCC5)cc4)cnc23)ccn1,91.5

# Study 2 — Structure (SMILES): O=C(Nc1ccccc1)Nc1cccc(Oc2ccc3nccn3n2)c1; concentration: 1 µM
target,remaining activity
"PDGFRA (Homo sapiens, UniProt P16234)",1.1%
"FLT1 (Homo sapiens, UniProt P17948)",3.2%
"TEK (Homo sapiens, UniProt Q02763)",7.6%
"STK11 (Homo sapiens, UniProt Q15831)",76%
"CIT (Homo sapiens, UniProt O14578)",0%
"DDR1 (Homo sapiens, UniProt Q08345)",2.2%
"PDGFRB (Homo sapiens, UniProt P09619)",0%
"PRKACB (Homo sapiens, UniProt P22694)",30%

# Study 3 — concentration: 1 µM
# Structure (SMILES): C=CC(=O)N1CCC([C@@H]2CCNc3c(C(N)=O)c(-c4ccc(Oc5ccccc5)cc4)nn32)CC1
target,assay,inhibition [%]
"CDKL1 (Homo sapiens, UniProt Q00532)",enzyme activity,40
"PAK3 (Homo sapiens, UniProt O75914)","enzyme activity, inhibitor",0
"PIP5K1C (Homo sapiens, UniProt O60331)",inhibitor,7
"STK39 (Homo sapiens, UniProt Q9UEW8)","enzyme activity, inhibitor",15
"PRKCI (Homo sapiens, UniProt P41743)","enzyme activity, inhibitor",15
"NLK (Homo sapiens, UniProt Q9UBE8)","enzyme activity, inhibitor",44
"DAPK2 (Homo sapiens, UniProt Q9UIK4)","enzyme activity, inhibitor",0
"STK17B (Homo sapiens, UniProt O94768)",enzyme activity,9
"MYLK2 (Homo sapiens, UniProt Q9H1R3)","enzyme activity, inhibitor",0
"TEC (Homo sapiens, UniProt P42680)","enzyme activity, inhibitor",93
"Ribosomal protein S6 kinase alpha-2, kinase domain 1 (RPS6KA2, Homo sapiens, UniProt Q15349)",inhibitor,25
"CDK16 (Homo sapiens, UniProt Q00536)","enzyme activity, inhibitor",0
"NEK4 (Homo sapiens, UniProt P51957)","enzyme activity, inhibitor",0
"CDC42BPG (Homo sapiens, UniProt Q6DT37)",inhibitor,22
"RET (Homo sapiens, UniProt P07949, V804L)","enzyme activity, inhibitor",9
"CAMKK1 (Homo sapiens, UniProt Q8N5S9)","enzyme activity, inhibitor",3

# Study 4 — concentration: 10 µM
# Compound: CC(=O)C1=C(C)N(c2cccc(C(F)(F)F)c2)C(=O)N[C@H]1c1ccc(C#N)nc1
target,assay,inhibition
"CHRM5 (Homo sapiens, UniProt P08912)",ligand displacement,2.19%
"SIGMAR1 (Homo sapiens, UniProt Q99720)",ligand displacement,-15.5%
"HTR7 (Homo sapiens, UniProt P34969)",ligand displacement,13.9%
"DRD4 (Homo sapiens, UniProt P21917)",ligand displacement,5.84%
"ADRA1B (Homo sapiens, UniProt P35368)",ligand displacement,-8.1%
"HRH4 (Homo sapiens, UniProt Q9H3N8)",ligand displacement,-0.78%
"HTR3A (Homo sapiens, UniProt P46098)",cell-free assay,23.7%
"ADRB2 (Homo sapiens, UniProt P07550)",ligand displacement,21.6%
"HTR6 (Homo sapiens, UniProt P50406)",ligand displacement,14.9%
"ADRA2C (Homo sapiens, UniProt P18825)",ligand displacement,11%
"TMEM97 (Homo sapiens, UniProt Q5BJF2)",ligand displacement,20.9%
"HRH1 (Homo sapiens, UniProt P35367)",ligand displacement,5.28%
"CHRM2 (Homo sapiens, UniProt P08172)",ligand displacement,-9.21%
